Measurements of several laboratories.
Compare with care: the assays were run in different laboratories. ± gives the spread as reported.

SMILES	assay	system	setting	measurement	result
NC(=O)c1cnc2[nH]ccc2c1N[C@@H]1[C@@H]2CC3C[C@H]1C[C@@](O)(C3)C2	–	healthy human volunteers, plasma	oral, population PK model estimate	absorption rate constant	5.04 h⁻¹
COc1ccc(-n2nc(C(N)=O)c3c2C(=O)N(c2ccc(N4CCCCC4=O)cc2)CC3)cc1	–	human, plasma	oral, Base population PK model	absorption rate constant	0.496 ± 0.0226 h⁻¹
CNC(=O)c1c(C)oc2cc(Oc3ncnc4cc(OC)c(OC)cc34)ccc12	population PK model	human	oral, without PPIs	absorption half-life	< 1 h
CC[C@@H]1CN(C(=O)NCC(F)(F)F)C[C@@H]1c1cnc2cnc3[nH]ccc3n12	population PK modelling	human	oral, extended-release formulation, outliers excluded	absorption rate constant (Ka)	0.0523 h⁻¹
NC(N)=NCCC[C@@H](N)C(=O)N[C@@H](CCCN=C(N)N)C(=O)N1CCC[C@H]1C(=O)N1C[C@H](O)C[C@H]1C(=O)NCC(=O)N[C@@H](Cc1cccs1)C(=O)N[C@@H](CO)C(=O)N1Cc2ccccc2C[C@@H]1C(=O)N1[C@H](C(=O)N[C@@H](CCCN=C(N)N)C(=O)O)C[C@@H]2CCCC[C@@H]21	popPK full model estimate	human	subcutaneous	absorption rate constant (ka)	3.27 h⁻¹
COc1cc(N2CCC3(CCN(C)CC3)CC2)ccc1Nc1ncc(Cl)c(Nc2ccccc2P(C)(C)=O)n1	population PK model	human	oral, bootstrap median	absorption rate constant	1.05 h⁻¹
Cc1cn(-c2cc(NC(=O)c3ccc(C)c(Nc4nccc(-c5cccnc5)n4)c3)cc(C(F)(F)F)c2)cn1	population PK model, bootstrap	human, both sexes, plasma	oral	absorption lag time (ALAG1)	0.102 h
Cn1cnc2c(F)c(Nc3ccc(Br)cc3Cl)c(C(=O)NOCCO)cc21	population PK model	human, plasma	oral, first-order absorption model, fed	absorption lag time	0.63 h

Excerpt of the above:
SMILES	assay	system	setting	measurement	result
NC(=O)c1cnc2[nH]ccc2c1N[C@@H]1[C@@H]2CC3C[C@H]1C[C@@](O)(C3)C2	–	healthy human volunteers, plasma	oral, population PK model estimate	absorption rate constant	5.04 h⁻¹
